Published values from different studies.
Compare with care: the assays were run in different laboratories.
CTSL: Procathepsin L (CTSL, Homo sapiens, UniProt P07711)
Sequence of UniProt P07711 (whole entry, looked up): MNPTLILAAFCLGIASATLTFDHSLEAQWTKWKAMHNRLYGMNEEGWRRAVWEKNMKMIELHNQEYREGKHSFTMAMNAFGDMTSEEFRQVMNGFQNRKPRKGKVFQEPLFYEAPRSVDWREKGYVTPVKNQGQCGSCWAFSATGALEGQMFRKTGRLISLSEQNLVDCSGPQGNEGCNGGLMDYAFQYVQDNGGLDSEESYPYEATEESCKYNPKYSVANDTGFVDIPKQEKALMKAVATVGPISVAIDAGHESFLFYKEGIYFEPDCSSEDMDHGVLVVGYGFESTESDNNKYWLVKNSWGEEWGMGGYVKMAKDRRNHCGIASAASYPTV
DRD3: D(3) dopamine receptor (DRD3, Homo sapiens, UniProt P35462)
Sequence of UniProt P35462 (whole entry, looked up): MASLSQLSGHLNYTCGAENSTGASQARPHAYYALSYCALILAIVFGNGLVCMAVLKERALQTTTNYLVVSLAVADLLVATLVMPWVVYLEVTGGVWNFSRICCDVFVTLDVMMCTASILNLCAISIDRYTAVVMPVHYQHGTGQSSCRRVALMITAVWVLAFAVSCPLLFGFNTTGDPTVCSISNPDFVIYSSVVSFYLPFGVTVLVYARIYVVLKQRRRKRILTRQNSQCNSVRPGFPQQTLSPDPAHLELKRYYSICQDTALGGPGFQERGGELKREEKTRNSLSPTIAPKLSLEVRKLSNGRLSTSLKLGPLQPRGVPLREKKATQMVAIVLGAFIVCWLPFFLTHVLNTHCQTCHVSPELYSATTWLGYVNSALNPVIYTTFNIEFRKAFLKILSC
Sequence of UniProt Q9UL54 (whole entry, looked up): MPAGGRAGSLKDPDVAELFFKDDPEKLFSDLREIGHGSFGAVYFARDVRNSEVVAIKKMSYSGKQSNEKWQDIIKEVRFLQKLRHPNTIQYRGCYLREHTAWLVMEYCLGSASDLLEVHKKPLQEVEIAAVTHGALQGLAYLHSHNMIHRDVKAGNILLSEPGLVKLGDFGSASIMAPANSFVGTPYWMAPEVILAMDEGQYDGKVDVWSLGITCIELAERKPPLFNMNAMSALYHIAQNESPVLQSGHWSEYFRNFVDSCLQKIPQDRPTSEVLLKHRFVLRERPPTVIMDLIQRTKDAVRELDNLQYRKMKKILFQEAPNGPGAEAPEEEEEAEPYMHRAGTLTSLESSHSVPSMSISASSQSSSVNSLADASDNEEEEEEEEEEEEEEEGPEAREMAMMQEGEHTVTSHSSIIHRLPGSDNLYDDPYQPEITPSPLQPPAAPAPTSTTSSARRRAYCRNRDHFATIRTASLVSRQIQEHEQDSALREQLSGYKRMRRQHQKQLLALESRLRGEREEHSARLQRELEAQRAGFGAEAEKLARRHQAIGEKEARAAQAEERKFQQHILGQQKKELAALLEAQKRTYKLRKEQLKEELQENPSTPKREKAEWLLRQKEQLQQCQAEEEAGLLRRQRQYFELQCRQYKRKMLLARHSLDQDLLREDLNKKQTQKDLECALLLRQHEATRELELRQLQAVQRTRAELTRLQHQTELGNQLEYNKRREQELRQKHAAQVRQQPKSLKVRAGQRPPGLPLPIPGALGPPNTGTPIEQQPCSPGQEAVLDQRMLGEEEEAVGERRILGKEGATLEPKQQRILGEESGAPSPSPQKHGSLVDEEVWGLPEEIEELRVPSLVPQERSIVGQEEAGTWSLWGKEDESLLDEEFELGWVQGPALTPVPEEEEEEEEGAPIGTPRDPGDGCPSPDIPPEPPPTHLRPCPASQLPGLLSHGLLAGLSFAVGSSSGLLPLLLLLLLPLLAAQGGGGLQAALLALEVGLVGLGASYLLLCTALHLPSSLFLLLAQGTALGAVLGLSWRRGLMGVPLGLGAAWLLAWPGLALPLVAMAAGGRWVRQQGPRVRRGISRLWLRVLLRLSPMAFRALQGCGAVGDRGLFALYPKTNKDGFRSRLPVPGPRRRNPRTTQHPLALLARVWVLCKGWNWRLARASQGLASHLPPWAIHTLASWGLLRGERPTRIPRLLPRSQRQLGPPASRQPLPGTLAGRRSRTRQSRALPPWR
Sequence of UniProt Q15418 (whole entry, looked up): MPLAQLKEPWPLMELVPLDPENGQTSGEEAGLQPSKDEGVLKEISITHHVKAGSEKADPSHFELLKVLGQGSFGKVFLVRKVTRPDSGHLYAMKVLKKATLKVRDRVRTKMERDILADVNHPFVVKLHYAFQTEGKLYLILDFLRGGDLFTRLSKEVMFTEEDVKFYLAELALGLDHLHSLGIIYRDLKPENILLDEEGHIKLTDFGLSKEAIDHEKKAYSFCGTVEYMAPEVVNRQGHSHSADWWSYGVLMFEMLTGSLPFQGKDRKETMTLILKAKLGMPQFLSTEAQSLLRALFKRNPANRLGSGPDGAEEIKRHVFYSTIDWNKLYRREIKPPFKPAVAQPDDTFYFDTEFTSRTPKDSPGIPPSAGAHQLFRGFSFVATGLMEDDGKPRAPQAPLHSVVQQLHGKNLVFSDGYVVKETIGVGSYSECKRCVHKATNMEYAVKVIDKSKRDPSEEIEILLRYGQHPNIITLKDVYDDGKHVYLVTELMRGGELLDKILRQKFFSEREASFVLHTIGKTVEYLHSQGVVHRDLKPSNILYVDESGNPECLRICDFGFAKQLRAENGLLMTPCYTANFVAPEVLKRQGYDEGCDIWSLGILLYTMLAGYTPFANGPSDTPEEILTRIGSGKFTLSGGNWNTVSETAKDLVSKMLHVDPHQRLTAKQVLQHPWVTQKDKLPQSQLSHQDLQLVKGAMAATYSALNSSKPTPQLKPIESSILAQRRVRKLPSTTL
Sequence of UniProt P49841 (whole entry, looked up): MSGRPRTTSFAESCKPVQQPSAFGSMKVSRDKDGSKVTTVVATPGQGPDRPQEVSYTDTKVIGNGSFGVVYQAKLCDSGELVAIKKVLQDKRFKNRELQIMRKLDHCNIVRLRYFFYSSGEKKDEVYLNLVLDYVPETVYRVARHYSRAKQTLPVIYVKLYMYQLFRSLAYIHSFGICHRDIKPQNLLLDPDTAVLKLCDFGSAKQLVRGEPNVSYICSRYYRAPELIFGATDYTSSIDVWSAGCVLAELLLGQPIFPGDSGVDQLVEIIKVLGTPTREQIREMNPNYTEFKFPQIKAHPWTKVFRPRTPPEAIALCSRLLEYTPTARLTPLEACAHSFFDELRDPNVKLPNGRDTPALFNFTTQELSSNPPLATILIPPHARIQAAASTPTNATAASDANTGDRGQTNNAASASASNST
Sequence of UniProt Q9H8M2 (whole entry, unmodified, looked up): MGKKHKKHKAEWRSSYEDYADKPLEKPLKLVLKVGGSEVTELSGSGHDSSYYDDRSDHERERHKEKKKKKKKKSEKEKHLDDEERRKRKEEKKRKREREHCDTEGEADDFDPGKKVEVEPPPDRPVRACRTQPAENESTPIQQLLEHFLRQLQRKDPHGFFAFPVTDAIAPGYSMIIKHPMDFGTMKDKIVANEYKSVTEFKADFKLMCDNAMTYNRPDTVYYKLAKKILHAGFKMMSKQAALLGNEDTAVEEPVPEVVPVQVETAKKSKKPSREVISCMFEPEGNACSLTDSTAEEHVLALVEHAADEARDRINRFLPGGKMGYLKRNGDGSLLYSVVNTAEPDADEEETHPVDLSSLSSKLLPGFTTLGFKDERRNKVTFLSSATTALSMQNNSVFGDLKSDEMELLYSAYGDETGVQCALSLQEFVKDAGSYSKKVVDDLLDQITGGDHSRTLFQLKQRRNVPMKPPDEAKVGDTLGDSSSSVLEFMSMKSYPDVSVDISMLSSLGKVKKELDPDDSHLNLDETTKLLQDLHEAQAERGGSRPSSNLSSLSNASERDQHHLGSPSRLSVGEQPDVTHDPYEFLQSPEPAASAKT
Sequence of UniProt Q9C098 (whole entry, looked up): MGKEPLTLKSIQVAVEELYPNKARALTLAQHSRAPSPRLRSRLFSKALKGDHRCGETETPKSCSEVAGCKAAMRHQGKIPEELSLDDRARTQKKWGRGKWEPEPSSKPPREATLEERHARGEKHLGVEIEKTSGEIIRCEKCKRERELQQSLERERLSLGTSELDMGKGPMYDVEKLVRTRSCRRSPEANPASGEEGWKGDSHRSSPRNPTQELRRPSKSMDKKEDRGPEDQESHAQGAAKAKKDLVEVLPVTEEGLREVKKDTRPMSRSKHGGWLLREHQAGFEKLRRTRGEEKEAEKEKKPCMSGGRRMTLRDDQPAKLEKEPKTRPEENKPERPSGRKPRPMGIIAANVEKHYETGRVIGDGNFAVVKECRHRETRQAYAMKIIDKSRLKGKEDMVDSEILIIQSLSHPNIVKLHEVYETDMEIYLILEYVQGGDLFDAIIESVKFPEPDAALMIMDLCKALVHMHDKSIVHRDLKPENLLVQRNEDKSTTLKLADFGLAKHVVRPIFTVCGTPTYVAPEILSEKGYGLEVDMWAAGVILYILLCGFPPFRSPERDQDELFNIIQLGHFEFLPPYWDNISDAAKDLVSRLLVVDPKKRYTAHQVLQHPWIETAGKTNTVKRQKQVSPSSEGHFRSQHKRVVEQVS
Sequence of UniProt Q8NI60 (whole entry, looked up): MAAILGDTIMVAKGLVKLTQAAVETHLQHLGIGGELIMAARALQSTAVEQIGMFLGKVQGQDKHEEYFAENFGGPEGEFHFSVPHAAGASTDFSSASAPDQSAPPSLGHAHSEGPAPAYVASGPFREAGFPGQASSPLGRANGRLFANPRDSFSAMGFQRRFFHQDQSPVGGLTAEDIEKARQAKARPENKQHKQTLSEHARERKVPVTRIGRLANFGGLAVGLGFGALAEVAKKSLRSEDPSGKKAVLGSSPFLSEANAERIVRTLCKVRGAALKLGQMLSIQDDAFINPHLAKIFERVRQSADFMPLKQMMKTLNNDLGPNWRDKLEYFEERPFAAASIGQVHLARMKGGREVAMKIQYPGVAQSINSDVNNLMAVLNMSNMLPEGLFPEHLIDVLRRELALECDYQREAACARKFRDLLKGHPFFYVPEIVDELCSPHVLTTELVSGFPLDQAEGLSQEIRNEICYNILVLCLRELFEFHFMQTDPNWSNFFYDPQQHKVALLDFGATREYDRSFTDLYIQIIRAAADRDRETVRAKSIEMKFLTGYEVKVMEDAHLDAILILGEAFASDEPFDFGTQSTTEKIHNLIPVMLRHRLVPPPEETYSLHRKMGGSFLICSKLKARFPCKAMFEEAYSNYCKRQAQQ

Structure (SMILES)	target	test	test system	setting	endpoint	result
COc1cc(-c2cncc3c2CN(C)Cc2cc(N4CCNCC4)ccc2-3)cc(OC)c1OC	DCLK3 (Homo sapiens, UniProt Q9C098)	enzyme activity, inhibitor		1 µM	remaining activity	121%
CC1OC(OCC2OC(OCCc3ccc(O)c(O)c3)C(O)C(OC3OC(C)C(O)C(O)C3O)C2OC(=O)/C=C/c2ccc(O)c(O)c2)C(O)C(O)C1O (stereo not drawn)	CTSL	enzyme activity, inhibitor		100 µM	remaining activity	111%
C1=C/COCc2cc(ccc2OCCN2CCCC2)Nc2nccc(n2)-c2cccc(c2)COC/1	PLK2 (Homo sapiens, UniProt Q9NYY3)	cell-free assay		0.1 µM	remaining signal	96%
C=CC(=O)N1CCC(COCC(=O)N2CCN(c3nc(-c4cnc(N)nc4C(F)F)nc(N4CCOC[C@@H]4C)n3)CC2)CC1	Ribosomal protein S6 kinase alpha-1, C-terminal kinase domain (RPS6KA1, Homo sapiens, UniProt Q15418)	binding, competition with immobilised ligand		1 µM	remaining binding	96%
CNc1ncc2c(/C=C/C(=O)N3CCC(OC)CC3)nn(Cc3cccc(C(F)(F)F)c3)c2n1	TAOK2 (Homo sapiens, UniProt Q9UL54)	enzyme activity, inhibitor, radiometric		1 µM	remaining activity	102%
O=C(CCc1ccc(O)cc1)c1c(O)cc(OC2OC(CO)C(O)C(O)C2O)cc1O (stereo not drawn)	CTSL	enzyme activity, inhibitor		100 µM	remaining activity	88.2%
COc1cc(-c2cc(C(C)=O)n3ccccc23)cc(OC)c1C(=O)N(C)C	BRD9 (Homo sapiens, UniProt Q9H8M2)	thermal stability, DSF		200 µM	ΔTm	14 °C
O=C(/C=C/c1ccc(O)c(O)c1)OCCc1ccccc1	CTSL	enzyme activity, inhibitor		100 µM	remaining activity	62.6%
Cc1cc([C@@H](C)Nc2ccccc2C(=O)O)c2nc(N3CCC(F)(F)CC3)c(C#N)c(=O)n2c1	COQ8A (Homo sapiens, UniProt Q8NI60)	binding, competition with immobilised ligand		10 µM	remaining binding	100%
CC[C@H](C)[C@H](NC(=O)[C@H](CCC(N)=O)NC(=O)[C@H](CCCNC(=N)N)NC(=O)[C@H](CO)NC(=O)[C@H](Cc1c[nH]cn1)NC(=O)[C@@H]1CCCN1C(=O)[C@H](C)NC(=O)[C@H](CO)NC(=O)[C@H](CC(C)C)NC(=O)CNC(=O)[C@@H]1CCCN1C(=O)[C@H](CCC(N)=O)NC(=O)[C@H](CCC(N)=O)NC(=O)[C@H](CCCNC(=N)N)NC(=O)[C@H](CO)NC(=O)CNC(=O)[C@H](CO)NC(=O)[C@H](CO)NC(=O)[C@H](CCC(=O)O)NC(=O)[C@@H]1CCCN1C(=O)[C@@H]1CCCN1C(=O)[C@@H]1CCCN1C(=O)[C@H](CO)NC(=O)[C@H](CC(C)C)NC(=O)[C@H](CO)NC(=O)[C@@H](NC(=O)CN)[C@@H](C)O)C(=O)N1CCC[C@H]1C(=O)N[C@@H](C)C(=O)N1CCC[C@H]1C(=O)N[C@@H](CCC(N)=O)C(=O)NCC(=O)N[C@@H](C)C(=O)N[C@H](C(=O)N[C@@H](CC(C)C)C(=O)N[C@H](C(=O)N[C@@H](CCC(N)=O)C(=O)N[C@@H](CCCNC(=N)N)C(=O)N[C@@H](CCC(=O)O)C(=O)N[C@@H](CCCCN)C(=O)N[C@@H](CC(=O)O)C(=O)N[C@@H](CC(C)C)C(=O)N1CCC[C@H]1C(=O)N[C@@H](CC(N)=O)C(=O)N[C@@H](Cc1ccc(O)cc1)C(=O)N[C@@H](CC(N)=O)C(=O)N[C@@H](Cc1c[nH]c2ccccc12)C(=O)N[C@@H](CC(N)=O)C(=O)N[C@@H](CO)C(=O)N[C@@H](Cc1ccccc1)C(=O)NCC(=O)N[C@@H](CC(C)C)C(=O)N[C@@H](CCCNC(=N)N)C(=O)N[C@@H](Cc1ccccc1)C(N)=O)C(C)C)C(C)C	KiSS-1 receptor (KISS1R, Homo sapiens, UniProt Q969F8, H181A)	inositol phosphate, agonist	HEK293		Emax	71.8%
Cc1[nH]c(C)c(S(=O)(=O)Nc2ccc(I)c(Cl)c2)c1C(=O)N1CCC(F)(F)C1	DRD3	β-arrestin recruitment, agonist		90 min	Emax	103%
COc1ccc2oc(-c3ccc4nc(N)oc4c3)c/c(=N\c3ccccc3NC(=O)CCN)c2c1	Cyclin-dependent kinase 1, with cyclin B (CDK1, Homo sapiens, UniProt P06493)	binding		1 µM	remaining binding	100%
CC[C@H](C)[C@H](NC(=O)[C@H](CCC(N)=O)NC(=O)[C@@H](NC(=O)[C@H](CCSC)NC(=O)[C@H](CCCCN)NC(=O)[C@H](CO)NC(=O)[C@@H](NC(=O)[C@H](CCSC)NC(=O)[C@H](CC(C)C)NC(=O)[C@H](CC(N)=O)NC(=O)[C@@H](NC(=O)[C@@H](NC(=O)[C@H](CO)NC(=O)[C@H](CC(C)C)NC(=O)[C@H](C)NC(=O)[C@H](CCCNC(=N)N)NC(=O)[C@H](CCC(=O)O)NC(=O)[C@H](Cc1ccc(O)cc1)NC(=O)[C@H](Cc1ccccc1)NC(=O)[C@H](C)NC(=O)[C@H](CC(N)=O)NC(=O)[C@@H](N)CCCCN)[C@@H](C)CC)[C@@H](C)CC)[C@@H](C)O)C(C)C)C(=O)N[C@@H](CC(N)=O)C(=O)N[C@H](C(=O)O)C(C)C	GSK3B (Homo sapiens, UniProt P49841)	enzyme activity, inhibitor, radiometric		250 µM, 20 min	remaining activity	127%
Nc1ncnc2occ(-c3ccc(NC(=O)Nc4cc(C(F)(F)F)ccc4F)cc3)c12	Tyrosine-protein kinase ABL1, non-phosphorylated (ABL1, Homo sapiens, UniProt P00519, F317L)	cell-free assay, inhibitor		20 µM	remaining signal	18%
COC(=O)c1ccccc1O	USP51 (Homo sapiens, UniProt Q70EK9)	enzyme activity, inhibitor		5 µM	inhibition	14%
O=C(/C=C/c1ccc(O)cc1)c1c(O)cc(O)cc1O	CTSL	enzyme activity, inhibitor		100 µM	remaining activity	5.8%
CCCCC(=O)Nc1ccc(-c2ccc3ncn(CCC)c(=O)c3c2)cn1	EPHA8 (Homo sapiens, UniProt P29322)	binding, competition with immobilised ligand		0.5 µM	remaining binding	100%
Cc1c(O)c(C)c2c(c1O)C(=O)C[C@@H](c1ccc(O)cc1)O2	CTSL	enzyme activity, inhibitor		100 µM	remaining activity	7.42%
FC(F)(F)Oc1cccc(-c2cnc3ccc(-c4ccncc4)nn23)c1	ERBB4 (Homo sapiens, UniProt Q15303)	cell-free assay, competition with immobilised ligand		5 µM	remaining binding	100%
OCC1OC(OCC2OC(OCC3OC(OC4(CO)OC(CO)C(O)C4O)C(O)C(O)C3O)C(O)C(O)C2O)C(O)C(O)C1O (stereo not drawn)	CTSL	enzyme activity, inhibitor		100 µM	remaining activity	98.4%
Cc1ccc(NS(=O)(=O)c2c(C)[nH]c(C)c2C(=O)N2CCCC2C)cc1Cl (stereo not drawn)	DRD3	β-arrestin recruitment, agonist		90 min	Emax	103%

Some of these lines once more:
Structure (SMILES)	target	test	test system	setting	endpoint	result
O=C(/C=C/c1ccc(O)cc1)c1c(O)cc(O)cc1O	CTSL	enzyme activity, inhibitor		100 µM	remaining activity	5.8%
COc1cc(-c2cncc3c2CN(C)Cc2cc(N4CCNCC4)ccc2-3)cc(OC)c1OC	DCLK3 (Homo sapiens, UniProt Q9C098)	enzyme activity, inhibitor		1 µM	remaining activity	121%
OCC1OC(OCC2OC(OCC3OC(OC4(CO)OC(CO)C(O)C4O)C(O)C(O)C3O)C(O)C(O)C2O)C(O)C(O)C1O (stereo not drawn)	CTSL	enzyme activity, inhibitor		100 µM	remaining activity	98.4%
